Results collected from several papers.
Every numbered part comes from another study and shows a few of its results, in no order.
UniProt P45985, sequence (whole entry, looked up): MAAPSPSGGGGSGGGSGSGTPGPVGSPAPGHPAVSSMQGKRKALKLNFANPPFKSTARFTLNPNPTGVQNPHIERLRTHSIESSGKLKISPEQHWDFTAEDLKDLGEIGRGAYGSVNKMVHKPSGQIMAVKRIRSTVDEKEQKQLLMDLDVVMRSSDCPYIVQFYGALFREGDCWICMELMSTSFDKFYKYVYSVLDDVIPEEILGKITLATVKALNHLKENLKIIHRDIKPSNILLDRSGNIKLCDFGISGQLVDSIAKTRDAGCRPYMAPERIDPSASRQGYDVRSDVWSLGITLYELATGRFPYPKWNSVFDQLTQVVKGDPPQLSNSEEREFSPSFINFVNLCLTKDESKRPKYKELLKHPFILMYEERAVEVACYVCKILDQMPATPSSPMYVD
UniProt Q9HC98, sequence (whole entry, looked up): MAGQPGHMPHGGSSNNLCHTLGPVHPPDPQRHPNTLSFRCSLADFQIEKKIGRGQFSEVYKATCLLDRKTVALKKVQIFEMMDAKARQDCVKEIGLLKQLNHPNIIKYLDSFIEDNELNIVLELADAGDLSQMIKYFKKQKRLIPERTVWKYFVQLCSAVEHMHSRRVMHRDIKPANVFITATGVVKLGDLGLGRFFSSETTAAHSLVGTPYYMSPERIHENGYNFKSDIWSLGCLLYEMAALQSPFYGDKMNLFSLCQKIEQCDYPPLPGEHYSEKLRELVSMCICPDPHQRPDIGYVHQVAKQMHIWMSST
UniProt O75460, sequence (whole entry, looked up): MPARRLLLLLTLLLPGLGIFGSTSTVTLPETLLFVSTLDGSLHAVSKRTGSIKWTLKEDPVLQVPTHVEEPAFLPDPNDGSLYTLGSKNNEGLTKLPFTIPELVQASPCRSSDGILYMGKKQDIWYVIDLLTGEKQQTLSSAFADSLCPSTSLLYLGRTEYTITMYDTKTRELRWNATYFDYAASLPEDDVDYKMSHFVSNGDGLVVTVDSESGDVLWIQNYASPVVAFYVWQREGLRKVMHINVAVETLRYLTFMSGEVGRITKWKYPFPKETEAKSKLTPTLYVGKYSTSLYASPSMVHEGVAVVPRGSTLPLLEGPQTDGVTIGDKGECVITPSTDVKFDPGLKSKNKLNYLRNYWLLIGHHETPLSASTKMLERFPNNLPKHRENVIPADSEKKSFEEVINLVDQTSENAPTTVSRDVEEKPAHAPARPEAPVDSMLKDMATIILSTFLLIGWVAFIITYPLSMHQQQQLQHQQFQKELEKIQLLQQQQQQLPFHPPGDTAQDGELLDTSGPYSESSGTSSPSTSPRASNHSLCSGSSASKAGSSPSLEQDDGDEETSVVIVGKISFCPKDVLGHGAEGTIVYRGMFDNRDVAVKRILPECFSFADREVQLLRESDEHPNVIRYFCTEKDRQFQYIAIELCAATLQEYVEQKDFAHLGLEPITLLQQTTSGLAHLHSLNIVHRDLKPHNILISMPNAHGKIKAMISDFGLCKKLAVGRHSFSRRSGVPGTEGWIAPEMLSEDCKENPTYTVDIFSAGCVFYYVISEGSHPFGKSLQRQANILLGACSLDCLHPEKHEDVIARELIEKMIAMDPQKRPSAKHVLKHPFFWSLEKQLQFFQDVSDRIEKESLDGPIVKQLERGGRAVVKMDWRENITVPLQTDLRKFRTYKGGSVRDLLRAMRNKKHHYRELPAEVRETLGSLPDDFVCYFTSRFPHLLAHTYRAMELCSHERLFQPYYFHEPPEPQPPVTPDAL
UniProt Q9UHD2, sequence (whole entry, looked up): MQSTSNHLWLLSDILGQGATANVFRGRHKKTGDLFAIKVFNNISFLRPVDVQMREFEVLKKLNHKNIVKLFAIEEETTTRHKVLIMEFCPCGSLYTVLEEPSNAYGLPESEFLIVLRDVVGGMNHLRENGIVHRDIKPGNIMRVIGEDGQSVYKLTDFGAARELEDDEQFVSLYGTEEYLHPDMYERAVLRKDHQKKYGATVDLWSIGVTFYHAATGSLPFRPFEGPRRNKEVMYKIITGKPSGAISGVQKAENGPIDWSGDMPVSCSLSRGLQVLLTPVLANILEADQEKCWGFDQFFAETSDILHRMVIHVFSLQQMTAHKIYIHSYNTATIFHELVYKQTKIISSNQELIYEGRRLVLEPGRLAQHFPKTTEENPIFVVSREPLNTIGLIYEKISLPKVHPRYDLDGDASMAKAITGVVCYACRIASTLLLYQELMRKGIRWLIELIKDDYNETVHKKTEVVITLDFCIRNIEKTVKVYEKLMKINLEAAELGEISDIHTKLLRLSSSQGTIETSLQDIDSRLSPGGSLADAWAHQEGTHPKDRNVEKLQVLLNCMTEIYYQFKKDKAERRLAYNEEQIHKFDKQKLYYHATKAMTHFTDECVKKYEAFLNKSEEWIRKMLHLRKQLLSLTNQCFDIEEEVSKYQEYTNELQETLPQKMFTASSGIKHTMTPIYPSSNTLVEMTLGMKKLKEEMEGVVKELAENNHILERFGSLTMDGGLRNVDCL
UniProt Q13233, sequence (whole entry, looked up): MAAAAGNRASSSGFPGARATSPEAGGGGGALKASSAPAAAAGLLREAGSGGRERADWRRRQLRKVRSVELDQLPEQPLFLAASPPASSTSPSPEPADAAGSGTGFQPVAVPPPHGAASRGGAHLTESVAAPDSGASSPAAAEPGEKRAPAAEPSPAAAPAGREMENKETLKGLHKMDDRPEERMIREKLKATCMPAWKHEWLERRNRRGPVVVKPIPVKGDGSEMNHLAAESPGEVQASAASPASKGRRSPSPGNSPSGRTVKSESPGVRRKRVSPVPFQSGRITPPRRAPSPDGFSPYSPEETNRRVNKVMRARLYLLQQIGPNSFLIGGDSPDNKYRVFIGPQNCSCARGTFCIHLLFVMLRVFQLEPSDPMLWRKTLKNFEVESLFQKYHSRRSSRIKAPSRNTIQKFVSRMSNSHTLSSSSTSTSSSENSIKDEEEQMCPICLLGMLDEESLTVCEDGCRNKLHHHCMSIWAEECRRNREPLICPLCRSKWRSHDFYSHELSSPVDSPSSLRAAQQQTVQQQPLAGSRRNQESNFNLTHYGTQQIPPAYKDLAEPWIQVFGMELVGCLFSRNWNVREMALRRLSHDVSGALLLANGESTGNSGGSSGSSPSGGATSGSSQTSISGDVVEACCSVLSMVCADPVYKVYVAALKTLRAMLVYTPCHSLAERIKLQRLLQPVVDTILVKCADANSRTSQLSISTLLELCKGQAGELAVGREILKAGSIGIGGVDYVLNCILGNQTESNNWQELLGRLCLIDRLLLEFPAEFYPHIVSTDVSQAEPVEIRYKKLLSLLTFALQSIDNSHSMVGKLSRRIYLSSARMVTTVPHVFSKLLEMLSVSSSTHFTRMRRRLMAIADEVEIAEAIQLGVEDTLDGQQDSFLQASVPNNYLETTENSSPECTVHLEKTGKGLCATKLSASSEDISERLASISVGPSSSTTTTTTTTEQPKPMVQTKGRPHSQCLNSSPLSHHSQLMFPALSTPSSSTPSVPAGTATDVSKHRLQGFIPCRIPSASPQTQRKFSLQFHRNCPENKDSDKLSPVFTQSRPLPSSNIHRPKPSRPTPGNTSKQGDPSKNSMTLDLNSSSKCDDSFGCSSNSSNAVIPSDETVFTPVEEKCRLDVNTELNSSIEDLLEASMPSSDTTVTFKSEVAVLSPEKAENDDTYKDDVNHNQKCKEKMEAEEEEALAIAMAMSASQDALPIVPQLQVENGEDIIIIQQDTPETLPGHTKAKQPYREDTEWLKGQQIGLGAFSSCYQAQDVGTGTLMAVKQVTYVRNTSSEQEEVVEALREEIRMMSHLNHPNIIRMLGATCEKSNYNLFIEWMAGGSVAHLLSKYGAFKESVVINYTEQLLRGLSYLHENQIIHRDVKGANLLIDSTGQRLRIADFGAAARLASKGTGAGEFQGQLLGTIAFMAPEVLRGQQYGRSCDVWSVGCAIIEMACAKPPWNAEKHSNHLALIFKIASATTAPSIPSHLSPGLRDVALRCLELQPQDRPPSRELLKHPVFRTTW
UniProt Q8WTQ7, sequence (whole entry, looked up): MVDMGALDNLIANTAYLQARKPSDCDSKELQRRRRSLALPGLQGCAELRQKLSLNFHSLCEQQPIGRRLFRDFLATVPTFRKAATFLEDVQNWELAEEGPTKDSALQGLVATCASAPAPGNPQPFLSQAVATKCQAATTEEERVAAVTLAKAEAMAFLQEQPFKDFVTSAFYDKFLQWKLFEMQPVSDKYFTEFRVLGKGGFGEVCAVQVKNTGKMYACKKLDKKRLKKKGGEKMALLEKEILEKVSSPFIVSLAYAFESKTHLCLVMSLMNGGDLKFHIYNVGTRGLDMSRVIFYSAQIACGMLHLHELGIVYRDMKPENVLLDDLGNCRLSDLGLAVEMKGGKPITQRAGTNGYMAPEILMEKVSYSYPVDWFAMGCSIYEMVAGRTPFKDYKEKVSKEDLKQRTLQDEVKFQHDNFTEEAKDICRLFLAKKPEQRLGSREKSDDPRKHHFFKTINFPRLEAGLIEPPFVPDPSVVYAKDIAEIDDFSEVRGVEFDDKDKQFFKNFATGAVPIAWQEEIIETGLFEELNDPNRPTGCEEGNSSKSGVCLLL
UniProt P49841, sequence (whole entry, looked up): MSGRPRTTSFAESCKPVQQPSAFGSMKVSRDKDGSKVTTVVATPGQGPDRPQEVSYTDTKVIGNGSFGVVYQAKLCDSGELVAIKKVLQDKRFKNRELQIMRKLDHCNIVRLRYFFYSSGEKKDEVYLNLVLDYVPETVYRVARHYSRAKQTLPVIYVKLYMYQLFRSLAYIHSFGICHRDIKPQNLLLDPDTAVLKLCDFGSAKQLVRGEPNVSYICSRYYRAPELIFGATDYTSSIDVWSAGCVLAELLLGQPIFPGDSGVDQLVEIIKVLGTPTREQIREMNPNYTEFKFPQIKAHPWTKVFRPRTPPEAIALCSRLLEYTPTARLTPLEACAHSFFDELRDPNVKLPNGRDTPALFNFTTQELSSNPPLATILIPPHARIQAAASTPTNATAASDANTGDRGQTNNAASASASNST

Block 1
Target: Fragile X messenger ribonucleoprotein 1, C-terminal low-complexity region (Fmr1, Mus musculus, UniProt P35922)
Method: RNA Bind-n-Seq
Form: RNA
Medium: in vitro
Concentration: 200 nM
Setting: whole 134-nt RNA, ends assumed
Added: 150 mM LiCl
Reference: input library
Direction: higher = stronger binding
Library: 7-deaza-guanosine replaces G
All sequences stand within: GGGAGUUCUACAGUCCGACGAUC … UGGAAUUCUCGGGUGUCAAGG
Sequence | log2 enrichment
ACCAUGCAGGUGGGCAUCUUUGGGAAGUGGGGCAAGGGGGGGAUAGGAAGGGGGGUAACACUUUGGGAACAGGUGGUCCCAGGUCGUUUC | 1.25
ACCAUGCAGGUGGGCAUCUUUGGGAAGUGGGGCAAGGGGGGGAUAGGGAGGGAAAUAACACUUUGGGAACAGGUGGUCCCAGGUCGUUUC | 0.76
AAGUCCUGUGCUACACAUCGUAUGUACCGAAUCGGGGUUUUGGUUUUGGGUUUUGGAAAGUAUUAUGUUACGCCGUUCGGAUCUGCACUU | -1.94
UCCUGUGCUACACAUCGUAUGUACCGAAUCAAACCCCCCCAAAUUUUUUUAAAUUUAAAAAAGUAUUAUGUUACGCCGUUCGGAUCUGCA | 1.86
AGUCCUGUGCUACACAUCGUAUGUACCGAAUCGGUUUUGGGGUUUUGGGGUUUUGGGGAAAGUAUUAUGUUACGCCGUUCGGAUCUGCAC | -0.314
UGGGAGGUGGAUUUUGUUUAUUUUUUUAGCUCAUUUCCAGGGGUGGGAAUUUUUUUUUAAUAUGUGUCAUGAAUAAAGUUAUUUUUGAAA | -0.268
UCCUGUGCUACACAUCGUAUGUACCGAAUCGGGUUUUUUUGGGAAAGGGUUUUUUUGGGAAAGUAUUAUGUUACGCCGUUCGGAUCUGCA | -1.77
AGUCCUGUGCUACACAUCGUAUGUACCGAAUCGGGGCCCCGGGGCCCCGGCCCCGGGAAAGUAUUAUGUUACGCCGUUCGGAUCUGCACU | -0.631

Block 2
Target: Myc proto-oncogene protein, bHLH-zipper, MAX partner unstated (MYC, Homo sapiens, UniProt P01106, residues 368-449)
UniProt P01106, sequence (368-449, looked up): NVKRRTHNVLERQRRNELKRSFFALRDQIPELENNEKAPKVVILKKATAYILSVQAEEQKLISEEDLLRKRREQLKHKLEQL
Method: protein-binding microarray
Form: double-stranded DNA, one strand shown
Medium: in vitro
Concentration: not given
Setting: k-mer, scored over probes, only values ≥0.25
Direction: higher = stronger binding
Sequence | E-score
GTGGCACA | 0.295
ACGCGGTG | 0.349
CGTGGAGA | 0.362
CATGGTCG | 0.322
ACACGCGT | 0.461
GCGCGCAC | 0.303
ACTGCATG | 0.36
ACGTGCAG | 0.431

Block 3
SMILES: CN(C)CCCn1cc(C2=C(c3c[nH]c4ccccc34)C(=O)NC2=O)c2ccccc21
Effect on: enzyme activity
Mode: inhibitor
Concentration: 0.5 µM
Reference: control
target | remaining activity [%]
MAPK3 (Homo sapiens, UniProt P27361) | 108
CSNK1G3 (Homo sapiens, UniProt Q9Y6M4) | 96.9
MAP3K14 (Homo sapiens, UniProt Q99558) | 110
MAPKAPK2 (Homo sapiens, UniProt P49137) | 85.4
TBK1 (Homo sapiens, UniProt Q9UHD2) | 83.8
TEK (Homo sapiens, UniProt Q02763) | 99.7
CSNK1G2 (Homo sapiens, UniProt P78368) | 90.3
GRK7 (Homo sapiens, UniProt Q8WTQ7) | 60.4
MAP3K5 (Homo sapiens, UniProt Q99683) | 90.2
GSK3B (Homo sapiens, UniProt P49841) | 7.01
NEK6 (Homo sapiens, UniProt Q9HC98) | 96.3
TAOK2 (Homo sapiens, UniProt Q9UL54) | 75.7
NEK1 (Homo sapiens, UniProt Q96PY6) | 92.5

Block 4
Compound: COc1ccc2c(O[C@@H]3C[C@H]4C(=O)N[C@]5(C(=O)O)CC5/C=C\CCCCC[C@H](NC(=O)OC5CCCC5)C(=O)N4C3)cc(-c3csc(NC(=O)C(C)C)n3)nc2c1C (stereo partly drawn)
Method: competition with immobilised ligand
Concentration: 1 µM
target | effect on | remaining binding [%]
NEK3 (Homo sapiens, UniProt P51956) | cell-free assay | 76
EGFR (Homo sapiens, UniProt P00533, del746-750) | cell-free assay | 98
MAP2K4 (Homo sapiens, UniProt P45985) | cell-free assay | 100
ERN1 (Homo sapiens, UniProt O75460) | cell-free assay | 79
TXK (Homo sapiens, UniProt P42681) | binding | 86
MET (Homo sapiens, UniProt P08581, M1250T) | cell-free assay | 100
MAP3K1 (Homo sapiens, UniProt Q13233) | cell-free assay | 82

For quick reference, copied from above (block 1):
Sequence | log2 enrichment
AAGUCCUGUGCUACACAUCGUAUGUACCGAAUCGGGGUUUUGGUUUUGGGUUUUGGAAAGUAUUAUGUUACGCCGUUCGGAUCUGCACUU | -1.94
UCCUGUGCUACACAUCGUAUGUACCGAAUCAAACCCCCCCAAAUUUUUUUAAAUUUAAAAAAGUAUUAUGUUACGCCGUUCGGAUCUGCA | 1.86
AGUCCUGUGCUACACAUCGUAUGUACCGAAUCGGUUUUGGGGUUUUGGGGUUUUGGGGAAAGUAUUAUGUUACGCCGUUCGGAUCUGCAC | -0.314
